Assay results collected from several papers.
Numbered parts are unrelated; each lists some results of a single study.

Set 1 — method: protein binding microarray; form: double-stranded DNA, one strand shown; sample: in vitro; tested at: not given; relative to: not given; direction: higher = stronger binding
Target: Histone acetyltransferase KAT6A, winged helix 1, GST fusion (KAT6A, Homo sapiens, UniProt Q92794, residues 1-85)
Setting: 8-mer, flanks averaged, mean of 2 arrays, mostly near background
Construct (chain): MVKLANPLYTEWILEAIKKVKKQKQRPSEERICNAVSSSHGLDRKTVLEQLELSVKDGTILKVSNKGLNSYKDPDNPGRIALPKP
Oligonucleotide | E-score
CGGAGAGA | 0.101
CACCGACA | 0.0463
GGGTTAAC | 0.0892
CTCCTGCC | -0.167
ATGACCCA | -0.144
ACCGCGAT | 0.287
CGGTAGCC | 0.147
AAGTTCCT | -0.179
CTGCTGTC | -0.0226
CATACTCC | -0.00153
CGACAAAG | -0.0995
AGCCACTG | -0.0553
ACCTGGCA | -0.167
CGGGGCCA | 0.113
ATAACTTA | -0.0874
GTTAAGAA | -0.131

Set 2 — method: aptamer microarray, sandwich; form: DNA with 2'F-ANA; sample: in vitro; tested at: 200 nM; added: Cy3 exosite-II aptamer, 400 nM; direction: higher = stronger binding; oligonucleotide: GGTTGGTGTGGTTGG
Target: Prothrombin, mature alpha-thrombin (F2, Homo sapiens, UniProt P00734)
Setting: whole 15-mer aptamer, many near background
Modification | mean fluorescence intensity [a.u.]
2'F-ANA at 3 5 8 9 12 14 15 | 61.4
2'F-ANA at 3 5 6 7 8 9 14 | 56
2'F-ANA at 1 3 4 7 8 9 10 11 12 13 14 15 | 90.4
2'F-ANA at 1 2 3 8 9 10 12 13 | 84.1
2'F-ANA at 2 3 4 5 8 10 11 13 15 | 68.5
2'F-ANA at 3 6 9 11 13 14 15 | 455
2'F-ANA at 2 5 6 7 9 10 11 14 15 | 48.5
2'F-ANA at 1 3 6 9 12 13 14 | 174
2'F-ANA at 1 2 4 5 8 9 10 12 13 14 15 | 105
2'F-ANA at 5 6 7 8 9 10 11 13 | 49.6
2'F-ANA at 2 8 9 12 13 | 563
2'F-ANA at 4 6 8 10 13 14 15 | 56.6
2'F-ANA at 1 2 3 4 5 6 8 9 10 11 12 14 15 | 54.3
2'F-ANA at 4 14 | 99
2'F-ANA at 1 4 5 6 8 11 13 15 | 56.1
2'F-ANA at 1 5 8 10 11 13 15 | 45.8
2'F-ANA at 1 2 4 8 12 13 | 199
2'F-ANA at 2 4 5 9 10 11 | 43.7
2'F-ANA at 1 2 4 9 12 15 | 264
2'F-ANA at 5 7 11 13 14 | 58.5
2'F-ANA at 2 6 7 8 9 13 14 | 122
2'F-ANA at 2 3 4 5 7 10 12 15 | 57

Set 3 — method: RNA Bind-n-Seq; form: RNA; sample: in vitro; tested at: 1 µM; setting: whole 134-nt RNA, ends assumed; added: 150 mM KCl; relative to: input library; direction: higher = stronger binding
Target: Ras GTPase-activating protein-binding protein 1, C-terminal RGG region (G3BP1, Homo sapiens, UniProt Q13283)
Chain of UniProt Q13283 (whole entry, looked up): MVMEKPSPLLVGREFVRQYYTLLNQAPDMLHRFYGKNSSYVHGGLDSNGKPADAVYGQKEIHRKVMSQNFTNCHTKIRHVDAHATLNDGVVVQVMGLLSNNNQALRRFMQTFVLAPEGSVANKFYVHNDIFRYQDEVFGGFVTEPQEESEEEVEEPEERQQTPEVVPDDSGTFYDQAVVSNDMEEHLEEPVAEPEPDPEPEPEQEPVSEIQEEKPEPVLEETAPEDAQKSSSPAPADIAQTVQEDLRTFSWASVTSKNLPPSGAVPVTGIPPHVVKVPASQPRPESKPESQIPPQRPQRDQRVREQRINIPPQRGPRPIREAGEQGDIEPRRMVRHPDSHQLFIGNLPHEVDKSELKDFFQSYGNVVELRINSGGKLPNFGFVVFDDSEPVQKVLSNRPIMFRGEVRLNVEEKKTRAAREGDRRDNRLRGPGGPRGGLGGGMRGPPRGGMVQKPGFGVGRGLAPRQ
Oligonucleotide | log2 enrichment
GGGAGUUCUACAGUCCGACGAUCAGUCCUGUGCUACACAUCGUAUGUACCGAAUCGGGGUUUUGGGGUUUUGGGUUUUGGAAAGUAUUAUGUUACGCCGUUCGGAUCUGCACUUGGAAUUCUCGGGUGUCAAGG | -0.906
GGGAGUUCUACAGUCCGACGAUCACCAUGCAGGUGGGCAUCUUUGGGAAGUGGGGCAAGGGGGGGAUAGGGAGGGGGGUAACACGUUGGGAACAGGUGGUCCCAGGUCGUUUCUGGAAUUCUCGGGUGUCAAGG | 2.38
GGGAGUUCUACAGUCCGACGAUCGUCCUGUGCUACACAUCGUAUGUACCGAAUCAAACCCCCAAACCCAAACCCCCCCAAAAAAGUAUUAUGUUACGCCGUUCGGAUCUGCACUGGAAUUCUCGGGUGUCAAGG | -0.235
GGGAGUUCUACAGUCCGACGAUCUGGCCCUGGUGGCAUGCGGGGAGGAAGAGGUGGCCUCAUGGAUCGUGGUGGUCCCGGUGGAAUGUUCAGAGGUGGCCGUGGGGGAGACAGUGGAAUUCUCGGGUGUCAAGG | 3.39
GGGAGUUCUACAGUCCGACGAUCCAAGUCCUGUGCUACACAUCGUAUGUACCGAAUCGGGGCCCGGGCCCGGGCCCGGGAAAGUAUUAUGUUACGCCGUUCGGAUCUGCACUUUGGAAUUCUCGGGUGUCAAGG | -1.8
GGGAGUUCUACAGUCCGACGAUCUCAAGUCCUGUGCUACACAUCGUAUGUACCGAAUCGGGCCCGGGCCCGGGCCCGGAAAGUAUUAUGUUACGCCGUUCGGAUCUGCACUUCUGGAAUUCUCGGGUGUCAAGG | -2.32
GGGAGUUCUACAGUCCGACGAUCAGUCCUGUGCUACACAUCGUAUGUACCGAAUCGGGUUUUUGGGUUUUUGGGAAAGGGAAAGUAUUAUGUUACGCCGUUCGGAUCUGCACUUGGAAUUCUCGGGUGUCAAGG | 0.29
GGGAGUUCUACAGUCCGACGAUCCUGUGCUACACAUCGUAUGUACCGAAUCAAAUUUUUUUAAACCCCCCCAAAUUUUUUUAAAAAAGUAUUAUGUUACGCCGUUCGGAUCUGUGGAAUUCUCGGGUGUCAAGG | -1.03
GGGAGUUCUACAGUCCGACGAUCGGUUUCUGGUGAGCUUCAUGGUUGACGCCCGGGGUGGUUCCAUGAGAGGAAGUCGCCACAACGGCCUGCGAGUGGUGAUCCCGCCACGGAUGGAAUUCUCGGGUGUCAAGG | -2.13

Set 4 — method: RNA Bind-n-Seq; form: RNA; sample: in vitro; tested at: 365 nM; relative to: no-protein control; direction: higher = stronger binding
Target: RNA binding protein fox-1 homolog 2, RRM domain, GST-SBP tag (RBFOX2, Homo sapiens, UniProt O43251-10, residues 100-194)
Setting: natural RNA segment, single round, ends assumed
Construct (chain): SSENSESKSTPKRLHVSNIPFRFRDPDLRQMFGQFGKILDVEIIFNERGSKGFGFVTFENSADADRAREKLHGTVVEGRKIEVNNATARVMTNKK
Oligonucleotide | RBNS enrichment (R)
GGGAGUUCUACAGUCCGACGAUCUCAGAGGAACUUUUCACUUGAAACUGUUGAUCUACUUGUCCAAAAGACCAGCUGCUGCGACACUAAUGCUAAGCCUAUGGGGAAGCACUGUUGACCUGCUCAGGUGCACAUGGAAUUCUCGGGUGCCAA | 0.21
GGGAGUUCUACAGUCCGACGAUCCUCCCACUUUUUACAAUGUCUAGUCAUUUUCAUAGUGCCCCACAUUCAAGAACCAGACAACAGGAUGCCUUAGAAGCUGGCUGGGUUUUGGGUCAGGGGCUCAGUAUGAGUGGAAUUCUCGGGUGCCAA | 2.19
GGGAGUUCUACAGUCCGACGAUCGAAACUGAUUCCAAGGACAUCCACAUAGCUGAGCCAAGAUGCUCCAGGCCAGUGGCAGGUGGACUGGAAGAGGCCUCUCCACUGAGCCUGUGUUCUGUGCUUCAGGCUCUUGGAAUUCUCGGGUGCCAA | 0.342
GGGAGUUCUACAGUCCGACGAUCAGGCUAUCCCUGUCGCACGUUGGAUCCUGGAUAAGCUAGUCCCUUCGUUUGCGUUGAGAAUUGGCAUGCAGUGUGUGUGAGCCGAGGGCCUCCUCAGUGUUCCACAAGCUUGGAAUUCUCGGGUGCCAA | 3.6
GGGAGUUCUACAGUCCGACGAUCUUGGAGACUGGGAUUAGAGCCUUUGGAGGUCAAAGCAAAUUAAGAUUUUUAUUUAAGAAUAAAAGAGUACUUUGAUCAUGAGACAUAGGUAUCUUGUCCCUCUCACUAAAUGGAAUUCUCGGGUGCCAA | 0.461
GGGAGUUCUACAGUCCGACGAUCUCUUUUGUAGUAGCUGAGAUCUGCAAUAUAUAACGGGACAGUCAAAGGGCAAUGUUUUUCUGUAACAUAUUGGAAAAAGAAAAUGCAGUUAUAUUCCUUUUUUAUUUGUUUGGAAUUCUCGGGUGCCAA | 0.799
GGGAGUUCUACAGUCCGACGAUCCCCCAGUGGUGGCAGCUGUUCCAUGCCUGCUCUGUUUCAGCUCUUCUGAGACAGGGAGGAGGAGCCAAGGGAGCUGUGAAGGGGAGGGGCAGGAGGACUCUUGCAGGGUUUGGAAUUCUCGGGUGCCAA | 0.483
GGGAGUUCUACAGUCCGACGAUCUCUCGGUCCUCUGGCCCCUUCUCCUUGCGGACCUCAUUUGGAAGGACACAUCUCUCUAUGCAAUUUGUCCCCACCCCACCCCGGCAUGAGAGGCCACGCAGCUCCCGACCUGGAAUUCUCGGGUGCCAA | 4.81
